Measurements of several laboratories.
Every numbered part comes from another study and shows a few of its results, in no order. “And” joins repeats or separate records; there may be more than shown.
UniProt P00519, sequence (whole entry, looked up): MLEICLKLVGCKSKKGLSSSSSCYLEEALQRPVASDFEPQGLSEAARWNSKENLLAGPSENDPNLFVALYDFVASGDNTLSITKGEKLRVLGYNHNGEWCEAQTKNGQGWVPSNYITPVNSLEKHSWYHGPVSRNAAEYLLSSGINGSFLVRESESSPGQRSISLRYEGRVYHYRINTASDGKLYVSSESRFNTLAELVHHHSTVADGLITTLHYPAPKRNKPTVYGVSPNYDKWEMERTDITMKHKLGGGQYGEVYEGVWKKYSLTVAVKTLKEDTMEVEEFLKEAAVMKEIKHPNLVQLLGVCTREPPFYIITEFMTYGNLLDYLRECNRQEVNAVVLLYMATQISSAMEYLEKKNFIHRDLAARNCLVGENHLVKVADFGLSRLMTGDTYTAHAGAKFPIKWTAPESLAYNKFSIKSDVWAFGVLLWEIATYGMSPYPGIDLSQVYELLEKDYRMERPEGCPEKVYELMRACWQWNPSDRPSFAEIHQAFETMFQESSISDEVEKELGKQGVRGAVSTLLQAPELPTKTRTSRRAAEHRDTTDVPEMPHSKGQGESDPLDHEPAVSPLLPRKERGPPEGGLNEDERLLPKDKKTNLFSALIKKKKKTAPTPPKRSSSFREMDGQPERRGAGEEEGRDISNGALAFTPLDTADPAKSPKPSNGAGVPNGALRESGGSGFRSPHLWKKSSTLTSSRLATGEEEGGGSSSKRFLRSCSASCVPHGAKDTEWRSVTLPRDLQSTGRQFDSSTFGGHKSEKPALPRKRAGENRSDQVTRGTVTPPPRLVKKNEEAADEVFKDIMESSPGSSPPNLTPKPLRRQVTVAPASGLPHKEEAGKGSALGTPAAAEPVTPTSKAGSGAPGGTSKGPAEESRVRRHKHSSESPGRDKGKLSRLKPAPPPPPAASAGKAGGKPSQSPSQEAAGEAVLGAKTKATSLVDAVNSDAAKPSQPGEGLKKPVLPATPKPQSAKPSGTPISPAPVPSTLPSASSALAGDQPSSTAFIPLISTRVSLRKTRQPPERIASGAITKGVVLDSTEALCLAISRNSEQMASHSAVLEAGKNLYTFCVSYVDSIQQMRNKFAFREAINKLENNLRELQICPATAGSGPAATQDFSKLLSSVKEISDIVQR
UniProt O75822, sequence (whole entry, looked up): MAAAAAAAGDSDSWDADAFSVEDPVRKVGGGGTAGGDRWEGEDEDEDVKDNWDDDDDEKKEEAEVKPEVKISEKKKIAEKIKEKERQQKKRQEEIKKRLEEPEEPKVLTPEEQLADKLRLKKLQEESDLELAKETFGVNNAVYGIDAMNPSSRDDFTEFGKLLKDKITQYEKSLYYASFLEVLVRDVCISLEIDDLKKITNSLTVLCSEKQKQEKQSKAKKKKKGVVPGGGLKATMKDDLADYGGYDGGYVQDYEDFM
UniProt O60563, sequence (whole entry, looked up): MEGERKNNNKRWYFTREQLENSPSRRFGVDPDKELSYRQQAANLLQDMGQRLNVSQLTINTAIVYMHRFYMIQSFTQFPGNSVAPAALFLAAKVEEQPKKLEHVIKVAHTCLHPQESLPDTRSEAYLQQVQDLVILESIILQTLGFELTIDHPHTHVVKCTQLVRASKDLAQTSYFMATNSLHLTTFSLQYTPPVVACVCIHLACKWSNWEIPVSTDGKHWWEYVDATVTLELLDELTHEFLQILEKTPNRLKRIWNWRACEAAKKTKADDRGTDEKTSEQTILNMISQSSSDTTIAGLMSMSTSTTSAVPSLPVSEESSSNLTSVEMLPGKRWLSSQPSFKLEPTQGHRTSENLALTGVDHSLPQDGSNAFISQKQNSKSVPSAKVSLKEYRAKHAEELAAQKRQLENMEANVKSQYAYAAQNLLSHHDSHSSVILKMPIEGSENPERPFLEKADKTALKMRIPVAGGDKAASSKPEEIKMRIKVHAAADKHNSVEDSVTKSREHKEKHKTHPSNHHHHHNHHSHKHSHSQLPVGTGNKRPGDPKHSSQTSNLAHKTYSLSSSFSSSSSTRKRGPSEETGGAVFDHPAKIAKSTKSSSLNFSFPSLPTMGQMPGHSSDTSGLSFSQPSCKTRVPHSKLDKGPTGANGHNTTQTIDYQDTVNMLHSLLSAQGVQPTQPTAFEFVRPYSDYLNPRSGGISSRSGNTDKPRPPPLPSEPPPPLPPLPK

Set 1
SMILES: CC(C)[C@H](CO)Nc1nc(Nc2cccc(Cl)c2)c2ncn(C(C)C)c2n1
| target | effect on | technique | organism | sample | IC50 |
| --- | --- | --- | --- | --- | --- |
| Trypanosoma brucei protein Tb427tmp.01.1680 | binding | kinobead competition | – | Trypanosoma brucei lysate | > 10 µM |
| protein Tb427tmp.211.1150 | – | kinobead TMT proteomics | Trypanosoma brucei | cell lysate | > 10 µM |
| Trypanosoma brucei NEK Tb427tmp.02.4530 | binding | kinobead competition | – | Trypanosoma brucei lysate | > 10 µM |
| Eukaryotic translation initiation factor 3 subunit J (Homo sapiens, UniProt O75822) | – | – | – | – | > 10 µM |
| protein Tb427tmp.01.8510 | – | kinobead TMT proteomics | Trypanosoma brucei | cell lysate | > 10 µM |
| ABL1 (Homo sapiens, UniProt P00519) | – | – | – | – | > 10 µM |
| Trypanosoma brucei kinase Tb427tmp.160.1200 | binding | kinobead competition | – | Trypanosoma brucei lysate | > 10 µM |
| protein Tb427tmp.50.0005 | – | kinobead TMT proteomics | Trypanosoma brucei | cell lysate | > 10 µM |
| protein Tb427tmp.01.3560 | – | kinobead TMT proteomics | Trypanosoma brucei | cell lysate | > 10 µM |
| Cyclin-T1 (CCNT1, Homo sapiens, UniProt O60563) | – | – | – | – | > 10 µM |

Set 2
Target: Serine/threonine-protein kinase PAK 2 (PAK2, Homo sapiens, UniProt Q13177)
UniProt Q13177, sequence (whole entry, looked up): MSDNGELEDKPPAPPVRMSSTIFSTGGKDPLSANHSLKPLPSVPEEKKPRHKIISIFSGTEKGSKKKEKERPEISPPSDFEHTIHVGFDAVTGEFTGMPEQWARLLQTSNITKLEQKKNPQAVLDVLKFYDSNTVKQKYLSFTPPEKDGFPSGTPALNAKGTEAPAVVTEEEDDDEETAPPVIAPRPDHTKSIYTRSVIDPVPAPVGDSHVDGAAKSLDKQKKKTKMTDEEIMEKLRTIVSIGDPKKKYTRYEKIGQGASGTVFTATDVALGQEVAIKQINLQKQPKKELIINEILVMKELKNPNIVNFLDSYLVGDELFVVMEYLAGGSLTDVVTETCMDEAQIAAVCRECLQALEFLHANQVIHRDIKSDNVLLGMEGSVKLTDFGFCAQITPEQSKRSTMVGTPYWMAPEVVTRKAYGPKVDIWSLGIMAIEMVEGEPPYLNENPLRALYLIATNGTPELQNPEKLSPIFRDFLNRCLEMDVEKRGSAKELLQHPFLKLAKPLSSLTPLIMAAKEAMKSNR
Effect on: enzyme activity
Action: inhibitor
Concentration: 0.5 µM
Baseline: control
| Structure (SMILES) | remaining activity |
| --- | --- |
| N#C/C(=C\c1ccc(O)c(O)c1)C(=O)NCc1ccccc1 | 76.8% |
| COc1cc2c(cc1OC)-c1[nH]nc(Nc3cccc(F)c3)c1C2 | 99.6% |
| Cc1nc2cc3nc(-c4cccs4)cnc3cc2n1C | 102% |
| N#Cc1c(NC(=O)c2cccc3ccccc23)sc2c1CCCC2 | 103% |
| COc1cc2ncnc(Nc3ccc(O)c(Br)c3)c2cc1OC | 90.6% |
| c1ccc(-c2cnc(Nc3ccc(OCCN4CCCC4)cc3)s2)cc1 | 94.8% |
| O=C1C(Cl)=C(N2C(=O)CCC2=O)C(=O)c2ccccc21 | 104% |
| O=C(Nc1cccc(Nc2nccc(Nc3cccc(C(F)(F)F)c3)n2)c1)C1CC1 | 105% |
| Ic1cccc(CSc2nnc(-c3ccncc3)o2)c1 | 97.6% |
| C[C@@H]1CCN(C(=O)CC#N)C[C@@H]1N(C)c1ncnc2[nH]ccc12 | 111% |
| CCOc1nc(NC(=O)Cc2cc(OC)ccc2OC)cc(N)c1C#N | 101% |
| c1ccc(-c2[nH]ncc2-c2ccnc3ccccc23)nc1 | 57% |
| COc1cc2ncnc(Nc3cccc(Cl)c3)c2cc1OC | 90.7% |
| Nc1cccc(-c2cc3c(Oc4cccc(O)c4)ncnc3[nH]2)c1 | 88.9% |
| CCN(CC)CCNC(=O)c1c(C)[nH]c(/C=C2\C(=O)Nc3ccc(Cl)cc32)c1C | 92.7% |
| CN(C)C[C@H]1CCn2c(c(C3=C(c4cn(C)c5ccccc45)C(=O)NC3=O)c3ccccc32)C1 | 85.1% |
| Cc1cn(-c2cc(NC(=O)c3ccc(C)c(Nc4nccc(-c5cccnc5)n4)c3)cc(C(F)(F)F)c2)cn1 | 94.2% |
| O=C(NC(NC(=S)Nc1ccc(F)c([N+](=O)[O-])c1)C(Cl)(Cl)Cl)C(c1ccccc1)c1ccccc1 (centres unmarked) | 100% |
| Cc1cc2ncc(-c3ccccc3)nc2cc1C | 99.3% |
| O=C1c2ccccc2-c2n[nH]c3cccc1c23 | 91.1% |
| CCN(CC)CCNC(=O)c1c(C)[nH]c(/C=C2\C(=O)Nc3ccc(F)cc32)c1C | 98.1% |
| Cn1nc2c3c(cccc31)C(=O)c1ccccc1-2 | 102% |
| O=c1cc(-c2cccc3c2Sc2ccccc2S3)oc(N2CCOCC2)c1 | 100% |

Set 3
Cell line: normal organoid sample E
Technique: CellTiter-Glo
Host: human
Sample: normal-adjacent epithelium
Concentration: 1 µM
Baseline: DMSO
| Compound | viability |
| --- | --- |
| CC(=O)c1c(NS(C)(=O)=O)c2cc(-c3ccc(Cl)cc3)c(-c3ccc(Cl)cc3Cl)nc2n(C)c1=O | 83.7% and 95.3% |
| O=C(O)c1cc(-c2ccc(C3CCNCC3)cc2)c2ccc(-c3ccc(C(F)(F)F)cc3)cc2c1 | 130% and 106% |
| CO[C@@H](C)c1c(Nc2ccc([C@@H](N(C)C(=O)C3CCS(=O)(=O)CC3)C(F)(F)F)cc2)cnc2cc(Cl)nn12 | 138% and 120% |
| CN(C)CC#Cc1ccc(OCCCc2sc(N3CCc4cccc(C(=O)Nc5nc6ccccc6s5)c4C3)nc2C(=O)O)c(F)c1 | 47.2% and 65.5% |
| Cc1cnc(-c2cc(Cl)ccc2F)cc1-n1c(=O)n(CC(N)=O)c2cnccc21 | 105% and 134% |
| CC1=C(C#N)C(c2ccc3[nH]nc(C)c3c2)C(C#N)=C(C)N1 | 121% and 122% |
| CC(=O)C1=C(C)N(c2cccc(C(F)(F)F)c2)C(=O)N[C@@H]1c1ccc(C#N)nc1 | 117% and 112% |
| Cc1ccc2[nH]c(CNCCCc3ccncc3)cc(=O)c2c1 | 109% and 95.8% |
| Cc1c(C(=O)O)cc(-c2ccc(C3CCNCC3)cc2)c2ccc(-c3ccc(C(F)(F)F)cc3)cc12 | 120% and 98.2% |
| O=C(NS(=O)(=O)c1ccc(NCC2CCOCC2)c([N+](=O)[O-])c1)c1ccc(N2CCN(Cc3ccc(C(F)(F)F)cc3-c3ccc(Cl)cc3)CC2)cc1Oc1cnc2[nH]ccc2c1 | 94.8% and 119% |
| CN([C@@H]1CCc2c(CC(=O)O)c3ccccc3n2C1)S(=O)(=O)c1ccc(F)cc1 | 125% and 120% |
| O=c1nc(-c2ccccn2)sc2ccccc12 | 62% and 71.8% |

Set 4
Cell line: mouse MPNST tumor cells
Technique: high-content immunofluorescence imaging
Refers to: nuclear SOX9
Concentration: 10 µM
Time: 12 h
Notes: mean of 2 replicates
Baseline: DMSO control
Reading: higher = more nuclear SOX9
| Compound | nuclear SOX9 intensity |
| --- | --- |
| Cc1nccn1CC1CCc2c(c3ccccc3n2C)C1=O (centres unmarked) | 98.4 % of DMSO |
| Oc1ccc(-c2nc3cc(O)cc(Br)c3o2)cc1 | 124 % of DMSO |
| O=C(CCCN1CCN(c2ccccn2)CC1)c1ccc(F)cc1 | 88.4 % of DMSO |
| COc1ccccc1CC(=N)N1C[C@@H]2C(=O)CCC(c3ccccc3)(c3ccccc3)[C@@H]2C1 | 136 % of DMSO |
| N#Cc1cc(C2=Nc3ccc(Br)cc3NC(=O)C2)ccn1 | 84.3 % of DMSO |
| Clc1ccc(C(Cn2ccnc2)OCc2ccsc2Cl)c(Cl)c1 (centres unmarked) | 112 % of DMSO |
| CC(=O)OCC(=O)C1(O)CCC2C3CCC4=CC(=O)CCC4(C)C3C(O)CC21C (centres unmarked) | 96.3 % of DMSO |
| CC(C)/N=c1\cc2n(-c3ccc(Cl)cc3)c3ccccc3nc-2cc1Nc1ccc(Cl)cc1 | 142 % of DMSO |
| c1coc(-c2nnc3sc(C4CCCCC4)nn23)c1 | 101 % of DMSO |
| Clc1ccc(C(Cn2ccnc2)OCc2csc3c(Cl)cccc23)c(Cl)c1 (centres unmarked) | 147 % of DMSO |
| CCCCCN(C)CCC(O)(P(=O)(O)O)P(=O)(O)O | 108 % of DMSO |
| Cc1cn([C@H]2C=C[C@@H](CO)O2)c(=O)[nH]c1=O | 120 % of DMSO and 113 % of DMSO |
| CC(C)(C)C(=O)OCOC(=O)[C@@H]1N2C(=O)[C@@H](/N=C/N3CCCCCC3)[C@H]2SC1(C)C | 117 % of DMSO |
| CCN1CCCC(OC(=O)C(c2ccccc2)c2ccccc2)C1 (centres unmarked) | 132 % of DMSO |

Repeated from above (set 3):
| Compound | viability |
| --- | --- |
| Cc1ccc2[nH]c(CNCCCc3ccncc3)cc(=O)c2c1 | 109% and 95.8% |
| CC(=O)c1c(NS(C)(=O)=O)c2cc(-c3ccc(Cl)cc3)c(-c3ccc(Cl)cc3Cl)nc2n(C)c1=O | 83.7% and 95.3% |
| CC1=C(C#N)C(c2ccc3[nH]nc(C)c3c2)C(C#N)=C(C)N1 | 121% and 122% |
| CN([C@@H]1CCc2c(CC(=O)O)c3ccccc3n2C1)S(=O)(=O)c1ccc(F)cc1 | 125% and 120% |
| O=c1nc(-c2ccccn2)sc2ccccc12 | 62% and 71.8% |
| Cc1cnc(-c2cc(Cl)ccc2F)cc1-n1c(=O)n(CC(N)=O)c2cnccc21 | 105% and 134% |
| CN(C)CC#Cc1ccc(OCCCc2sc(N3CCc4cccc(C(=O)Nc5nc6ccccc6s5)c4C3)nc2C(=O)O)c(F)c1 | 47.2% and 65.5% |
| O=C(O)c1cc(-c2ccc(C3CCNCC3)cc2)c2ccc(-c3ccc(C(F)(F)F)cc3)cc2c1 | 130% and 106% |
| O=C(NS(=O)(=O)c1ccc(NCC2CCOCC2)c([N+](=O)[O-])c1)c1ccc(N2CCN(Cc3ccc(C(F)(F)F)cc3-c3ccc(Cl)cc3)CC2)cc1Oc1cnc2[nH]ccc2c1 | 94.8% and 119% |
